{"data": "Published values pooled from the literature", "SETDB1": "Histone-lysine N-methyltransferase SETDB1 (SETDB1, Homo sapiens, UniProt Q15047)", "folP": "Dihydropteroate synthase (folP, Bacteria, UniProt P0AC13)", "TARDBP aggregated": "TAR DNA-binding protein 43, aggregated (TARDBP, Homo sapiens, UniProt Q13148)", "T1": "RNA aptamer; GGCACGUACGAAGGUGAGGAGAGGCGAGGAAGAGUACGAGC", "T2": "RNA aptamer; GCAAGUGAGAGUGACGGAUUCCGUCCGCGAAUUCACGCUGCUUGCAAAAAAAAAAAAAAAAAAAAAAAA", "note": "Each line is one published result; not all experiments were run side by side. “And” joins repeats or separate records; there may be more than shown. ± gives the spread as reported.", "chain of UniProt P0AC13 (whole entry, looked up)": "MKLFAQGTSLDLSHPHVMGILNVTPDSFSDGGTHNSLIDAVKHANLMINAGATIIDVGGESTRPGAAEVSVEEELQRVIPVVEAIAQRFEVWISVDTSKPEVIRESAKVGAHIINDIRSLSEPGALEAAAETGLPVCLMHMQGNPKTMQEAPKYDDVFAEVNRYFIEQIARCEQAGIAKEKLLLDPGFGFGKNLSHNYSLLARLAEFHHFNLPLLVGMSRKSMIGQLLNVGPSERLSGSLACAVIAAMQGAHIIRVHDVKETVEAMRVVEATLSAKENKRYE", "chain of UniProt Q13148 (whole entry, looked up)": "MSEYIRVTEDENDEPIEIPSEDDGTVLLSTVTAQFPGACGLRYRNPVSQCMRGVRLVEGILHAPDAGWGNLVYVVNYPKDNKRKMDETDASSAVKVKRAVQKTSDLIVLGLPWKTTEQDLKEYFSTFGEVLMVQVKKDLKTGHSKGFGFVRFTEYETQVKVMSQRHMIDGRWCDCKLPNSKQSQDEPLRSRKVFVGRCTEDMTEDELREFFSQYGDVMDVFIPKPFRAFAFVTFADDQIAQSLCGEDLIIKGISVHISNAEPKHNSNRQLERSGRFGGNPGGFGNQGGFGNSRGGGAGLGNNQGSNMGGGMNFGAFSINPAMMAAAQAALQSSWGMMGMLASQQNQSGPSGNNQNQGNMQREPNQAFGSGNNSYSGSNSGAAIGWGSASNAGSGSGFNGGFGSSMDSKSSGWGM", "chain of UniProt P48735 (whole entry, unmodified, looked up)": "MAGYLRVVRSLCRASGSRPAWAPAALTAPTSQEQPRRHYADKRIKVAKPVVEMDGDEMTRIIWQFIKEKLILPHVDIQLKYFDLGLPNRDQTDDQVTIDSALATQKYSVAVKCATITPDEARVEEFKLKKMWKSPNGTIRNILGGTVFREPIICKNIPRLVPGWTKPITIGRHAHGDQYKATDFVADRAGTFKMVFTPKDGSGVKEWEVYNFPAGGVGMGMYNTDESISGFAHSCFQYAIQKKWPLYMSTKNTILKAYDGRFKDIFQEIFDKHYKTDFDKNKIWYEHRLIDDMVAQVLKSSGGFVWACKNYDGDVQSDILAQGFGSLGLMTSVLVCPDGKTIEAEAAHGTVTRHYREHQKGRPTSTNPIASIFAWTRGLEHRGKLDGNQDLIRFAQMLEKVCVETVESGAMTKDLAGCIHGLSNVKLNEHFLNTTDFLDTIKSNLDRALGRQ", "chain of UniProt Q86TI2 (whole entry, looked up)": "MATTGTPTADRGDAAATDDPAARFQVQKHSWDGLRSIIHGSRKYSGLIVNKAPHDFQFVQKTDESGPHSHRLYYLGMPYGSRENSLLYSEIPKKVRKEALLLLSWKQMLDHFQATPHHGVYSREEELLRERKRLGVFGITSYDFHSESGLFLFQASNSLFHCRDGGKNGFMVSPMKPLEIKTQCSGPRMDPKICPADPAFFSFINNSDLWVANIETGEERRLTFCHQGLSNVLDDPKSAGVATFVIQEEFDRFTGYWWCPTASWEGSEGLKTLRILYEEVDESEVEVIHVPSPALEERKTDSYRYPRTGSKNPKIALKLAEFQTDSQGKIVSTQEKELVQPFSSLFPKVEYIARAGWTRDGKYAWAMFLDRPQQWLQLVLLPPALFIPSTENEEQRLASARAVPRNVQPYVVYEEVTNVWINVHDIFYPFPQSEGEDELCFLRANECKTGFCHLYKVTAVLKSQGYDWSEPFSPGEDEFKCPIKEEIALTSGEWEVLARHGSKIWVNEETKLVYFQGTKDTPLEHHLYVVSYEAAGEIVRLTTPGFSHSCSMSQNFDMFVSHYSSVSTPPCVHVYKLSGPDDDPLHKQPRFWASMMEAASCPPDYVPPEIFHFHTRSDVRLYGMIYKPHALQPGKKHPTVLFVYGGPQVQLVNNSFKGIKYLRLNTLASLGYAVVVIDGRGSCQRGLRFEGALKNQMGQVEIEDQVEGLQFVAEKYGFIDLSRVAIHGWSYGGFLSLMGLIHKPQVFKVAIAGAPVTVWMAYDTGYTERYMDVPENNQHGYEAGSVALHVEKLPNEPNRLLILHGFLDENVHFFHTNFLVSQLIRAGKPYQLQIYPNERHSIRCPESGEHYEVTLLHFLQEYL", "chain of UniProt Q14145 (whole entry, looked up)": "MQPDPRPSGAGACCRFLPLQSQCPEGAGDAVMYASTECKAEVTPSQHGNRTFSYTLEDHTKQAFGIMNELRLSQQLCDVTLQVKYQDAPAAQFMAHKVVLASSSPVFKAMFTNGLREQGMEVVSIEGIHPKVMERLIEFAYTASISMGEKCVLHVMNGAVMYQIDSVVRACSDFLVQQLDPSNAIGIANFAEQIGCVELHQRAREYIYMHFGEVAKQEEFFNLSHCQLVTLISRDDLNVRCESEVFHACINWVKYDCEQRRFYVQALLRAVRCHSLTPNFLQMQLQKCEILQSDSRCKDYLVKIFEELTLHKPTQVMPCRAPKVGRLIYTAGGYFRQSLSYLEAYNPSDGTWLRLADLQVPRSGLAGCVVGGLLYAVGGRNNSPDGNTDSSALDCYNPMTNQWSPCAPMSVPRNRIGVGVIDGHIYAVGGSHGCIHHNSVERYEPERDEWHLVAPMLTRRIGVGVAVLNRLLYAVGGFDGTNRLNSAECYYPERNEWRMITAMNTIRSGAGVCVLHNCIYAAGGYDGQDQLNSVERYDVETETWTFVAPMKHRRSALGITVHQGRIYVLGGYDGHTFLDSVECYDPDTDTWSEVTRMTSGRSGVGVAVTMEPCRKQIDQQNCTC", "chain of UniProt P38606 (whole entry, looked up)": "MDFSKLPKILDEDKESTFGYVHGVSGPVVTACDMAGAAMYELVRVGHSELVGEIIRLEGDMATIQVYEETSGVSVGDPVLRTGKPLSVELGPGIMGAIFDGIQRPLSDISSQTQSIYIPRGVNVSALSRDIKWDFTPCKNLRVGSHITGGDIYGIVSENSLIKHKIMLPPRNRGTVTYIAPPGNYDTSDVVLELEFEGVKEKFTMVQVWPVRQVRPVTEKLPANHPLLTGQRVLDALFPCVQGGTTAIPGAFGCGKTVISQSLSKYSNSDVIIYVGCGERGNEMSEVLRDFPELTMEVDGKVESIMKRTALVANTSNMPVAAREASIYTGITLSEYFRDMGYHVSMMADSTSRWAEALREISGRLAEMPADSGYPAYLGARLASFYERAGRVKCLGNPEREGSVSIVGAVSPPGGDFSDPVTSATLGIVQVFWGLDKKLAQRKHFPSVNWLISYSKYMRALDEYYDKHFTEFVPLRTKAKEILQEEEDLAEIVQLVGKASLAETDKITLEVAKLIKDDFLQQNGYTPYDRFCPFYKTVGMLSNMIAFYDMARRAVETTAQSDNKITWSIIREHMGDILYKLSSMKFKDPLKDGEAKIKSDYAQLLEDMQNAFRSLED", "chain of UniProt Q13526 (whole entry, looked up)": "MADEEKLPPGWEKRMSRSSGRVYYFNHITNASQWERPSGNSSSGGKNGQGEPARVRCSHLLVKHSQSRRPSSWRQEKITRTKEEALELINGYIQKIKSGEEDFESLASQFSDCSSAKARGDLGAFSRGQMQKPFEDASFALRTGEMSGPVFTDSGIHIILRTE", "chain of UniProt O15151 (whole entry, unmodified, looked up)": "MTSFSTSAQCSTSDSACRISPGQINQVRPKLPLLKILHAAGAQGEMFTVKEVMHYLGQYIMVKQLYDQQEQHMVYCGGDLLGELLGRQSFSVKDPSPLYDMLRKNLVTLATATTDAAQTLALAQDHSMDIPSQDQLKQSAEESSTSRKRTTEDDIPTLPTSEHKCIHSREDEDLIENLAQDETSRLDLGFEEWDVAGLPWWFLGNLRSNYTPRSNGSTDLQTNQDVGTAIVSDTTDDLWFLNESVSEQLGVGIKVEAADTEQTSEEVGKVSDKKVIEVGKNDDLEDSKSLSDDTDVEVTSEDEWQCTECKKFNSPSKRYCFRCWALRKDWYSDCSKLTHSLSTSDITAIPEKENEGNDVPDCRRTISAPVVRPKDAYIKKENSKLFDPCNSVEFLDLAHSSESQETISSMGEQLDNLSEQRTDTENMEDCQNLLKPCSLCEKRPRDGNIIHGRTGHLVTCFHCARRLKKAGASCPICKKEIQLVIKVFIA", "chain of UniProt Q96EB6 (whole entry, looked up)": "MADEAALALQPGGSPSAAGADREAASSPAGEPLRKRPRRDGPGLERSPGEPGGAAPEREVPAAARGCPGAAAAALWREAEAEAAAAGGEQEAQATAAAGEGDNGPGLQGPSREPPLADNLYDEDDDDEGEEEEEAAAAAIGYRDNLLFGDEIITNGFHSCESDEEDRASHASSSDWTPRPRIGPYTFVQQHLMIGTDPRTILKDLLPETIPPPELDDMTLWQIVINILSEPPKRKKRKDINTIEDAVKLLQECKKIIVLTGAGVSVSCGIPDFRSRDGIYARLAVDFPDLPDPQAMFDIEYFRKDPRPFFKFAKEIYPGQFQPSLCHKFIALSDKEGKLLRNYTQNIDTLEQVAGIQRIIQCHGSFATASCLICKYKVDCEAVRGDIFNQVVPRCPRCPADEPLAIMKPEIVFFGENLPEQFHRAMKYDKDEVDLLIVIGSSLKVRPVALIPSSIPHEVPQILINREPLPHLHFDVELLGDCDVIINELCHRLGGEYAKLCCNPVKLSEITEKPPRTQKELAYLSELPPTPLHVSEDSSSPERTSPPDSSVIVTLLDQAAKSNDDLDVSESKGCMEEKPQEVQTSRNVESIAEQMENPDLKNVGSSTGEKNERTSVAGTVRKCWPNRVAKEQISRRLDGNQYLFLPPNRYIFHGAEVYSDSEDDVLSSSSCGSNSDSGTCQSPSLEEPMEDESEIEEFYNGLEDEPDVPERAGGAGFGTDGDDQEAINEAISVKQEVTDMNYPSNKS", "chain of UniProt P97287 (152-308, looked up)": "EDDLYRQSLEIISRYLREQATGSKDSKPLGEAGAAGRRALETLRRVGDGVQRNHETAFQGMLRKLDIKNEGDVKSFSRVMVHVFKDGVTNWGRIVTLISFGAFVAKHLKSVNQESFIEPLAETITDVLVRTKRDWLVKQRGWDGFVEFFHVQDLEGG"}
{"SMILES": "CN1C=CC(=Cc2sc3ccccc3[n+]2CC(=O)NCCOCCOCCOCCNC(=O)CCCC[C@@H]2SC[C@@H]3NC(=O)N[C@@H]32)c2ccccc21", "tested on": "T1, RNA aptamer", "test": "fluorescence titration", "measurement": "Kd", "value": "1.39 nM"}
{"SMILES": "CC[C@H](NC(=O)[C@H](CCC(=O)O)NC(=O)[C@H](CCCNC(=N)N)NC(=O)[C@H](C)NC(=O)[C@H](Cc1c[nH]c2ccccc12)NC(=O)[C@H](CCC(=O)O)NC(=O)[C@H](CCC(=O)O)NC(=O)[C@H](CCC(=O)O)NC(C)=O)C(=O)NCC(=O)N[C@@H](C)C(=O)N[C@@H](CCC(N)=O)C(=O)N[C@@H](CC(C)C)C(=O)N[C@@H](CCCNC(=N)N)C(=O)N[C@@H](CCCNC(=N)N)C(=O)N[C@@H](C)C(=O)N[C@@H](C)C(=O)N[C@@H](CC(=O)O)C(=O)N[C@@H](CC(=O)O)C(=O)N[C@@H](CC(C)C)C(=O)N[C@@H](CC(N)=O)C(=O)N[C@@H](C)C(=O)N[C@@H](CCC(N)=O)C(=O)N[C@@H](Cc1ccc(O)cc1)C(=O)N[C@@H](CCC(=O)O)C(=O)N[C@@H](CCCNC(=N)N)C(=O)N[C@@H](CCCNC(=N)N)C(=O)N[C@@H](CCCNC(=N)N)C(N)=O", "tested on": "Induced myeloid leukemia cell differentiation protein Mcl-1 homolog, residues 152-308 (Mus musculus, UniProt P97287)", "test": "binding, SPR", "setting": "0.2% DMSO", "measurement": "koff", "value": "0.0083 s⁻¹"}
{"SMILES": "COCCCCCNc1nc(NCCCCCCN(C)C)c2cc(NC(=O)/C=C/CN(C)C)ccc2n1", "tested on": "SETDB1", "test": "cell-free assay, inhibitor, FP", "setting": "0.5 µM", "measurement": "remaining signal", "value": "79%"}
{"SMILES": "CCC1(CC)C(=O)N(c2cc(C(=O)OC)cc(C(=O)N3CCN(Cc4ccc(Br)cc4)CC3)c2)C1=O", "tested on": "Dipeptidyl peptidase 9 (DPP9, Homo sapiens, UniProt Q86TI2)", "test": "enzyme activity, inhibitor", "setting": "5 µM", "measurement": "activity vs control", "value": "25%"}
{"SMILES": "COc1ccccc1-c1ccncc1C(=O)Nc1nnc(OCc2ccc(Cl)cc2)s1", "tested on": "RECQL5 (Homo sapiens, UniProt O94762)", "test": "ATPase activity, ADP-Glo", "setting": "0.008 µM, 1 h", "measurement": "remaining activity", "value": "101%"}
{"SMILES": "Cc1cccc(C)c1CNc1cc(C(=O)N2CCC2)cn2c(C)c(C)nc12", "tested on": "porcine Na+/K+-ATPase", "test system": "cerebral cortex", "how to read": "relative to: Na+/K+-ATPase IC50 over H+/K+-ATPase IC50", "measurement": "selectivity ratio", "value": "> 600 fold"}
{"SMILES": "CC1(C)CC[C@@]2(CO)C(=C3C=C[C@@H]4[C@@]5(C)CC[C@H](O)[C@@](C)(CO)[C@@H]5CC[C@@]4(C)[C@]3(C)C[C@@H]2O)C1", "tested on": "NAD-dependent protein deacetylase sirtuin-1 (SIRT1, Homo sapiens, UniProt Q96EB6)", "test": "binding, microscale thermophoresis", "setting": "35.1 nM", "measurement": "MST normalised fluorescence", "value": "910 a.u."}
{"SMILES": "O=C(CCl)N[C@@H](Cc1ccccc1)C(=O)N1CCCC[C@H]1C(=O)NCCc1c[nH]c2cc(Cl)cc(Cl)c12", "tested on": "Peptidyl-prolyl cis-trans isomerase NIMA-interacting 1 (PIN1, Homo sapiens, UniProt Q13526)", "test": "protein denaturation, thermal shift", "measurement": "first transition share", "value": "70%"}
{"SMILES": "CCCCCC=CC=C1C(=O)C=CC1CC=CCCCC(=O)O (stereo not drawn)", "tested on": "V-type proton ATPase catalytic subunit A (ATP6V1A, Homo sapiens, UniProt P38606)", "test": "competitive isoTOP-ABPP", "test system": "proteome, soluble, MDA-MB-231", "setting": "100 µM, added: iodoacetamide probe", "how to read": "relative to: DMSO over compound-treated, higher = stronger cysteine blockade", "measurement": "isoTOP-ABPP competition ratio", "value": 1.2}
{"SMILES": "Nc1nc2[nH]nc(CC(=O)O)c(=O)c2c(=O)[nH]1", "tested on": "folP", "test": "CETSA HiBiT", "test system": "Escherichia coli, cell lysate", "setting": "concentration not given", "how to read": "relative to: DMSO", "measurement": "melting temperature shift", "value": "22.5 °C"}
{"SMILES": "C[C@](O)(c1ccccc1)c1cn(C[C@H](NC(=O)OCC2c3ccccc3-c3ccccc32)C(=O)O)nn1", "tested on": "Protein Mdm4 (MDM4, Homo sapiens, UniProt O15151)", "test": "thermal stability, DSF", "setting": "30 µM", "measurement": "ΔTm", "value": "0.02 °C"}
{"SMILES": "C[C@@H](Nc1nc(N[C@H](C)C(F)(F)F)nc(-c2cccc(Cl)n2)n1)C(F)(F)F", "tested on": "Isocitrate dehydrogenase [NADP], mitochondrial, heterodimer with wild-type (IDH2, Homo sapiens, UniProt P48735, R172K)", "test": "forward reaction", "setting": "16 h preincubation, wild type", "measurement": "maximum inhibition", "value": "74.6 ± 1.4%"}
{"SMILES": "COC(=O)CC(C)c1n[nH]c2nc(N)[nH]c(=O)c2c1=O (stereo not drawn)", "tested on": "folP", "test": "CETSA HiBiT", "test system": "whole cells", "measurement": "melting temperature", "value": "59.9 °C"}
{"SMILES": "O=C1c2sc(-c3ccc(N4CCC(CO)CC4)nc3F)nc2CCN1c1cccnc1", "tested on": "TARDBP aggregated", "test": "radioligand binding", "test system": "human, FTLD-TDP type B sarkosyl-insoluble extract", "setting": "52.06 nM", "measurement": "specific binding", "value": "1.24 nM and 1.97 nM"}
{"SMILES": "Cc1ncsc1-c1ccc(C(C)NC(=O)C2CC(O)CN2C(=O)C(NC(=O)CCCCCCCCCCN2CCCC(Nc3ncc(Cl)c(Nc4ccccc4S(=O)(=O)C(C)C)n3)C2)C(C)(C)C)cc1 (stereo not drawn)", "tested on": "22Rv1", "test": "RNA-seq, refers to: RNF227 mRNA", "setting": "concentration not given", "how to read": "relative to: DMSO", "measurement": "log2 fold change", "value": -1.62}
{"SMILES": "O=C(N1CCCC1)n1cc(-c2ccc(-c3ccccc3)cc2)nn1", "tested on": "Serine beta-lactamase-like protein LACTB, mitochondrial (Lactb, Mus musculus, UniProt Q9EP89)", "test": "enzyme activity, inhibitor, competitive ABPP-SILAC, refers to: Lactb", "test system": "mouse T-cells", "setting": "concentration not given, 4 h, treated in situ", "how to read": "relative to: DMSO", "measurement": "activity ratio", "value": 1.2}
{"SMILES": "CC(=O)NCCCCCNc1nc(NCCCCCCN(C)C)c2cc(NC(=O)/C=C/CN(C)C)ccc2n1", "tested on": "SETDB1", "test": "cell-free assay, inhibitor, FP", "setting": "1 µM", "measurement": "remaining signal", "value": "27.3%"}
{"SMILES": "CC(=O)N[C@@H](CO)C(=O)N[C@@H](CC(C)C)C(=O)N[C@@H](CCC(=O)O)C(=O)N[C@@H](CCC(=O)O)C(=O)N1CCC[C@H]1C(=O)N[C@@H](Cc1c[nH]cn1)C(=O)N[C@@H](COP(=O)(O)O)C(=O)N1CCC[C@H]1C(=O)N[C@@H](CCC(=O)O)C(=O)N[C@H](C(=O)NCC(=O)N[C@@H](CCC(=O)O)C(=O)N[C@@H](CCCCN)C(=O)N[C@H](C(=O)N[C@H](C(=O)N[C@@H](C)C(=O)NCC(=O)N[C@@H](CCC(=O)O)C(=O)N[C@H](C(=O)N[C@@H](CC(N)=O)C(N)=O)C(C)C)C(C)C)C(C)C)[C@@H](C)O", "tested on": "Kelch-like ECH-associated protein 1, Kelch domain (KEAP1, Homo sapiens, UniProt Q14145)", "test": "ITC", "setting": "concentration not given", "measurement": "binding stoichiometry", "value": 0.99}
{"SMILES": "Fc1ccc(Nc2nc(NCc3ncccn3)nc(Nc3ccccc3)n2)cc1", "tested on": "T2, RNA aptamer", "test": "SPR", "setting": "25 °C, read off a plot", "measurement": "Kd", "value": "30 nM"}
{"SMILES": "O=C1c2sc(-c3ccc(N4CCC(F)C4)nc3F)nc2CCN1c1cccnc1 (stereo not drawn)", "tested on": "TARDBP aggregated", "test": "saturation autoradiography", "test system": "human, FTLD-TDP type A brain sections", "setting": "25 nM", "measurement": "specific binding", "value": "104 nM"}
{"SMILES": "COC1CN([C@H]2CC[C@H]([C@@]3(C)Oc4c(Cl)cc(C(=O)NCc5c(SC)cc(C)[nH]c5=O)c(C)c4O3)CC2)C1", "test": "RNA-seq, refers to: PLEKHA7", "test system": "human, whole blood", "setting": "dose not given, 24 h", "how to read": "relative to: pretreatment baseline", "measurement": "log2 fold change", "value": 1.33}
{"SMILES": "C=CC(=O)Nc1cccc(Cn2ncc3cnc(Nc4cnn(CCOC)c4)nc32)c1", "tested on": "human SgK110", "test": "KINOMEscan", "setting": "100 nM", "how to read": "relative to: control", "measurement": "binding", "value": "21%"}
{"SMILES": "CC(C)C[C@@H]1NC(=O)[C@@H]2CSSC[C@@H](C(=O)NCC(=O)O)NC(=O)[C@H](Cc3ccccc3)NC(=O)CNC(=O)[C@H](CC(N)=O)NC(=O)[C@@H]3CCCN3C(=O)CNC(=O)[C@@H]3CSSC[C@H](NC(=O)[C@H](CCCNC(=N)N)NC(=O)[C@@H]4CCCN4C(=O)[C@H](CCCNC(=N)N)NC(=O)[C@H](CCCCN)NC(=O)[C@H](C(C)C)NC(=O)[C@H](C(C)C)NC(=O)[C@H](CC(N)=O)NC(=O)[C@H](C(C)C)NC(=O)[C@H](CO)NC(=O)[C@H](CCC(N)=O)NC(=O)[C@@H](NC(=O)CN)CSSC[C@H](NC(=O)CNC(=O)[C@H](C)NC1=O)C(=O)N[C@@H](C(C)C)C(=O)N3)C(=O)N[C@@H](CCCCN)C(=O)N[C@@H](CCC(N)=O)C(=O)N[C@@H](CC(=O)O)C(=O)N[C@@H](CO)C(=O)N[C@@H](CC(=O)O)C(=O)N2", "tested on": "Low-density lipoprotein receptor-related protein 6, E1 domain (LRP6, Homo sapiens, UniProt O75581)", "test": "binding, SPR", "setting": "pH 7.5", "measurement": "kon", "value": "2.31e+06 ± 400000 M⁻¹ s⁻¹"}
{"SMILES": "CC(C(=O)O)c1n[nH]c2nc(N)[nH]c(=O)c2c1=O (stereo not drawn)", "tested on": "folP", "test": "CETSA HiBiT", "test system": "Escherichia coli, cell lysate", "setting": "concentration not given", "how to read": "relative to: DMSO", "measurement": "melting temperature shift", "value": "20.9 °C"}
{"note": "A few entries again:"}
{"SMILES": "CC[C@H](NC(=O)[C@H](CCC(=O)O)NC(=O)[C@H](CCCNC(=N)N)NC(=O)[C@H](C)NC(=O)[C@H](Cc1c[nH]c2ccccc12)NC(=O)[C@H](CCC(=O)O)NC(=O)[C@H](CCC(=O)O)NC(=O)[C@H](CCC(=O)O)NC(C)=O)C(=O)NCC(=O)N[C@@H](C)C(=O)N[C@@H](CCC(N)=O)C(=O)N[C@@H](CC(C)C)C(=O)N[C@@H](CCCNC(=N)N)C(=O)N[C@@H](CCCNC(=N)N)C(=O)N[C@@H](C)C(=O)N[C@@H](C)C(=O)N[C@@H](CC(=O)O)C(=O)N[C@@H](CC(=O)O)C(=O)N[C@@H](CC(C)C)C(=O)N[C@@H](CC(N)=O)C(=O)N[C@@H](C)C(=O)N[C@@H](CCC(N)=O)C(=O)N[C@@H](Cc1ccc(O)cc1)C(=O)N[C@@H](CCC(=O)O)C(=O)N[C@@H](CCCNC(=N)N)C(=O)N[C@@H](CCCNC(=N)N)C(=O)N[C@@H](CCCNC(=N)N)C(N)=O", "tested on": "Induced myeloid leukemia cell differentiation protein Mcl-1 homolog, residues 152-308 (Mus musculus, UniProt P97287)", "test": "binding, SPR", "setting": "0.2% DMSO", "measurement": "koff", "value": "0.0083 s⁻¹"}
